# Published values from different studies.
# Protocols differ between the studies behind these lines. Values joined by “and” are separate records of one study, mostly repeats; a detail may differ.
# Spike glycoprotein S1 subunit: Spike glycoprotein, S1 subunit (Severe acute respiratory syndrome coronavirus 2, UniProt P0DTC2)
# Spike glycoprotein: Spike glycoprotein (Severe acute respiratory syndrome coronavirus 2, UniProt P0DTC2)
# Spike glycoprotein RBD: Spike glycoprotein, RBD (Severe acute respiratory syndrome coronavirus 2, UniProt P0DTC2)
SMILES,target,read-out,technique,Kd
COc1ccc(-c2oc3c(CC=C(C)C)c(O[C@@H]4O[C@H](CO)[C@@H](O)[C@H](O)[C@H]4O)cc(O)c3c(=O)c2O[C@@H]2O[C@@H](C)[C@H](O)[C@@H](O)[C@H]2O[C@@H]2O[C@@H](C)[C@H](O)[C@@H](O)[C@H]2O)cc1,Spike glycoprotein S1 subunit,binding,,2.91 µM and 2.86 µM
CCCCCCCCCCCCCCCc1cccc(O)c1C(=O)O,Spike glycoprotein,binding,biolayer interferometry,8.38 µM
CC(C)C[C@H](NC(=O)[C@H](Cc1ccccc1)NC(=O)[C@@H](NC(=O)[C@H](CCCCN)NC(=O)[C@H](C)NC(=O)[C@H](CCC(N)=O)NC(=O)[C@@H](N)CCC(=O)O)[C@@H](C)O)C(=O)N[C@@H](CC(=O)O)C(=O)N[C@@H](CCCCN)C(=O)N[C@@H](Cc1ccccc1)C(=O)O,Spike glycoprotein,binding,,0.0478 µM
CNC(C)C1C(O)CC2(C)C3CCC4C(C)(C)C(NC)CCC45CC35CCC12C (stereo not shown),Spike glycoprotein,binding,,46.5 µM
CC(C)C[C@H](NC(=O)[C@H](Cc1c[nH]c2ccccc12)NC(=O)[C@H](CCCNC(=N)N)NC(=O)[C@H]1CCC[C@@H]1NC(=O)[C@H](CCC(=O)O)NC(=O)[C@H](CC(=O)O)NC(=O)[C@H](CC(=O)O)NC(=O)[C@@H](N)CC(N)=O)C(=O)N[C@H]1CCC[C@@H]1C(=O)N[C@H](C(=O)N[C@@H](CC(=O)O)C(=O)N[C@H]1CCC[C@@H]1C(=O)N[C@H](C(=O)N[C@@H](Cc1ccc(O)cc1)C(=O)N[C@@H](CCCC(=O)O)C(=O)N[C@H]1CCC[C@@H]1C(=O)N[C@@H](Cc1c[nH]c2ccccc12)C(=O)N[C@@H](Cc1c[nH]cn1)C(N)=O)C(C)C)[C@@H](C)O,Spike glycoprotein RBD,,,6.2 µM
CC[C@H](C)[C@H](NC(=O)[C@H](CCCCNC(=O)CN(CCNC(=O)CN(CCNC(=O)CN(CCNC(=O)CN(CCNC(=O)[C@H](CCCNC(=N)N)NC(C)=O)C(=O)Cn1ccc(N)nc1=O)C(=O)Cn1cnc2c(=O)[nH]c(N)nc21)C(=O)Cn1cnc2c(=O)[nH]c(N)nc21)C(=O)Cn1ccc(N)nc1=O)NC(=O)[C@H](CC(=O)O)NC(=O)[C@H](CO)NC(=O)[C@@H](NC(=O)[C@H](CCCNC(=N)N)NC(=O)[C@H](CCSC)NC(=O)[C@H](CO)NC(=O)[C@H](C)NC(=O)[C@H](CCC(=O)O)NC(=O)[C@H](C)NC(=O)[C@H](Cc1c[nH]cn1)NC(=O)CNC(=O)[C@H](CC(C)C)NC(=O)[C@H](CCC(=O)O)NC(=O)[C@H](CC(=O)O)NC(=O)[C@H](CC(C)C)NC(=O)[C@H](CC(C)C)NC(=O)[C@H](CCCNC(=N)N)NC(=O)[C@H](CCSC)NC(=O)[C@H](CCCC(=O)NCCN(CC(=O)NCCN(CC(=O)NCCN(CC(=O)NCCN(CC(=O)N[C@@H](CCCNC(=N)N)C(N)=O)C(=O)Cn1cnc2c(=O)[nH]c(N)nc21)C(=O)Cn1ccc(N)nc1=O)C(=O)Cn1ccc(N)nc1=O)C(=O)Cn1cnc2c(=O)[nH]c(N)nc21)NC(=O)[C@H](CCC(=O)O)NC(=O)[C@H](Cc1ccc(O)cc1)NC(=O)[C@@H](NC(=O)[C@H](CCCCN)NC(=O)[C@H](CCC(N)=O)NC(=O)[C@H](CC(C)C)NC(=O)[C@@H](NC(=O)[C@H](Cc1c[nH]c2ccccc12)NC(=O)[C@H](CCC(=O)O)NC(=O)[C@H](CCCCN)NC(=O)[C@H](CC(=O)O)NC(C)=O)[C@@H](C)CC)[C@@H](C)CC)C(C)C)C(=O)N[C@@H](Cc1ccc(O)cc1)C(=O)N[C@@H](CCC(=O)O)C(=O)N[C@@H](Cc1ccccc1)C(=O)N[C@@H](CCSC)C(=O)N[C@@H](CCCCN)C(=O)N[C@@H](CCCCN)C(N)=O,Spike glycoprotein,binding,SPR,7.4e-05 µM
CC(C)=CCCC(C)(OC1OC(COC2OC(CO)C(O)C2OC2OCC(O)C(O)C2O)C(O)C(O)C1O)C1CCC2(C)C1C(O)CC1C3(C)CCC(OC4OC(CO)C(O)C(O)C4OC4OC(CO)C(O)C(O)C4O)C(C)(C)C3CCC12C (stereo not shown),Spike glycoprotein S1 subunit,binding,,9.44 µM
CC(C)C[C@H](NC(=O)[C@H](Cc1c[nH]c2ccccc12)NC(=O)[C@H](CCCNC(=N)N)NC(=O)[C@H]1CCC[C@@H]1NC(=O)[C@H](CCC(=O)O)NC(=O)[C@H](CC(=O)O)NC(=O)[C@H](CC(=O)O)NC(=O)[C@@H](N)CC(N)=O)C(=O)N[C@H]1CCC[C@@H]1C(=O)N[C@H](C(=O)N[C@@H](CC(=O)O)C(=O)N[C@H]1CCC[C@@H]1C(=O)N[C@H](C(=O)N[C@@H](Cc1ccc(O)cc1)C(=O)N[C@@H](CCC(=O)O)C(=O)N[C@H]1CCC[C@@H]1C(=O)N[C@@H](Cc1c[nH]c2ccccc12)C(=O)N[C@@H](Cc1c[nH]cn1)C(N)=O)C(C)C)[C@@H](C)O,Spike glycoprotein RBD,,,11.4 µM
CC[C@H](C)[C@H](NC(=O)[C@H](CCC(=O)O)NC(=O)[C@H](CC(=O)O)NC(=O)[C@H](CO)NC(=O)[C@@H](NC(=O)[C@H](CCCNC(=N)N)NC(=O)[C@H](CCSC)NC(=O)[C@H](CO)NC(=O)[C@H](C)NC(=O)[C@H](CCC(=O)O)NC(=O)[C@H](C)NC(=O)[C@H](Cc1c[nH]cn1)NC(=O)CNC(=O)[C@H](CC(C)C)NC(=O)[C@H](CCC(=O)O)NC(=O)[C@H](CC(=O)O)NC(=O)[C@H](CC(C)C)NC(=O)[C@H](CC(C)C)NC(=O)[C@H](CCCNC(=N)N)NC(=O)[C@H](CCSC)NC(=O)[C@H](CCC(=O)O)NC(=O)[C@H](CCC(=O)O)NC(=O)[C@H](Cc1ccc(O)cc1)NC(=O)[C@@H](NC(=O)[C@H](CCCCN)NC(=O)[C@H](CCC(N)=O)NC(=O)[C@H](CC(C)C)NC(=O)[C@@H](NC(=O)[C@H](Cc1c[nH]c2ccccc12)NC(=O)[C@H](CCC(=O)O)NC(=O)[C@H](CCCCN)NC(=O)[C@@H](N)CC(=O)O)[C@@H](C)CC)[C@@H](C)CC)C(C)C)C(=O)N[C@@H](Cc1ccc(O)cc1)C(=O)N[C@@H](CCC(=O)O)C(=O)N[C@@H](Cc1ccccc1)C(=O)N[C@@H](CCSC)C(=O)N[C@@H](CCCCN)C(=O)N[C@@H](CCCCN)C(N)=O,Spike glycoprotein,binding,SPR,0.0019 µM
"COc1cc(C2C3C4=[N+](CCc5cc(O)c(OC)cc54)C(c4c3ccc(OC)c4OC)C2C(=O)[O-])ccc1O (single isomer, unassigned; (+))",Spike glycoprotein,binding,,22.2 µM

# Some of these lines once more:
SMILES,target,read-out,technique,Kd
"COc1cc(C2C3C4=[N+](CCc5cc(O)c(OC)cc54)C(c4c3ccc(OC)c4OC)C2C(=O)[O-])ccc1O (single isomer, unassigned; (+))",Spike glycoprotein,binding,,22.2 µM
